Published values of several laboratories.
A part holds a random share of what one study measured.
Chain of UniProt Q13153 (whole entry, looked up): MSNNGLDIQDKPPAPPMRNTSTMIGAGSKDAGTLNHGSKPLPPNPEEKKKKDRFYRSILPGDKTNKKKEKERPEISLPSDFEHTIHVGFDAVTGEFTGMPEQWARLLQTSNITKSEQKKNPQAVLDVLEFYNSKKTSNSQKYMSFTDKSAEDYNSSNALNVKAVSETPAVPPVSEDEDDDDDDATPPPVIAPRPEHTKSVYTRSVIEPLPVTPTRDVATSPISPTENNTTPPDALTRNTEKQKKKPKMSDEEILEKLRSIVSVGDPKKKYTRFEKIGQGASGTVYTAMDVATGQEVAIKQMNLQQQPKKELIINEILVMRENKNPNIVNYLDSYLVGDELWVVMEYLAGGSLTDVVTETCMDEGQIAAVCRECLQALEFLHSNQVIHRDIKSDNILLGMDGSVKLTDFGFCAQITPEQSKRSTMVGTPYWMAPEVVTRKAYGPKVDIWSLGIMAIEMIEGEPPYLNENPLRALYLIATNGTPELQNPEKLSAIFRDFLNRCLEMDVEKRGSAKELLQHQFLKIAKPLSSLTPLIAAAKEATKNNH
Chain of UniProt Q9NYY3 (whole entry, looked up): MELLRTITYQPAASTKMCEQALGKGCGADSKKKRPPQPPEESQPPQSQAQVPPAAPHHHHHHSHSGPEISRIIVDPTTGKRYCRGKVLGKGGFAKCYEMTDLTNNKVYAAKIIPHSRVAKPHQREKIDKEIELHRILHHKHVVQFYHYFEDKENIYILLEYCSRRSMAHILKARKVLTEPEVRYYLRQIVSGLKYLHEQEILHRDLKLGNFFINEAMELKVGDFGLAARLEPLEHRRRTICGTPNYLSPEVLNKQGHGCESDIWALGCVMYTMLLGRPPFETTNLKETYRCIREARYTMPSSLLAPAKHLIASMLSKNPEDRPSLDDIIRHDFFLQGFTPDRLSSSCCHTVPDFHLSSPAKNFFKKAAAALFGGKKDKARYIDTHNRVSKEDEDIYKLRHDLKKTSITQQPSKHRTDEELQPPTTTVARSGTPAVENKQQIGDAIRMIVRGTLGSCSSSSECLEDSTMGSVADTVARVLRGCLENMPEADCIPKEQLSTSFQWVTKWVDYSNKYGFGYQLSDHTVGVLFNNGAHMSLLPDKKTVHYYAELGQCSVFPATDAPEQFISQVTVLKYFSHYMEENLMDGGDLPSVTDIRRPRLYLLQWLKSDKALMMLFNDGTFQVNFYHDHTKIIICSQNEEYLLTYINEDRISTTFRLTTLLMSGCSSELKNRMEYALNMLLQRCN
Chain of UniProt P07949 (whole entry, looked up): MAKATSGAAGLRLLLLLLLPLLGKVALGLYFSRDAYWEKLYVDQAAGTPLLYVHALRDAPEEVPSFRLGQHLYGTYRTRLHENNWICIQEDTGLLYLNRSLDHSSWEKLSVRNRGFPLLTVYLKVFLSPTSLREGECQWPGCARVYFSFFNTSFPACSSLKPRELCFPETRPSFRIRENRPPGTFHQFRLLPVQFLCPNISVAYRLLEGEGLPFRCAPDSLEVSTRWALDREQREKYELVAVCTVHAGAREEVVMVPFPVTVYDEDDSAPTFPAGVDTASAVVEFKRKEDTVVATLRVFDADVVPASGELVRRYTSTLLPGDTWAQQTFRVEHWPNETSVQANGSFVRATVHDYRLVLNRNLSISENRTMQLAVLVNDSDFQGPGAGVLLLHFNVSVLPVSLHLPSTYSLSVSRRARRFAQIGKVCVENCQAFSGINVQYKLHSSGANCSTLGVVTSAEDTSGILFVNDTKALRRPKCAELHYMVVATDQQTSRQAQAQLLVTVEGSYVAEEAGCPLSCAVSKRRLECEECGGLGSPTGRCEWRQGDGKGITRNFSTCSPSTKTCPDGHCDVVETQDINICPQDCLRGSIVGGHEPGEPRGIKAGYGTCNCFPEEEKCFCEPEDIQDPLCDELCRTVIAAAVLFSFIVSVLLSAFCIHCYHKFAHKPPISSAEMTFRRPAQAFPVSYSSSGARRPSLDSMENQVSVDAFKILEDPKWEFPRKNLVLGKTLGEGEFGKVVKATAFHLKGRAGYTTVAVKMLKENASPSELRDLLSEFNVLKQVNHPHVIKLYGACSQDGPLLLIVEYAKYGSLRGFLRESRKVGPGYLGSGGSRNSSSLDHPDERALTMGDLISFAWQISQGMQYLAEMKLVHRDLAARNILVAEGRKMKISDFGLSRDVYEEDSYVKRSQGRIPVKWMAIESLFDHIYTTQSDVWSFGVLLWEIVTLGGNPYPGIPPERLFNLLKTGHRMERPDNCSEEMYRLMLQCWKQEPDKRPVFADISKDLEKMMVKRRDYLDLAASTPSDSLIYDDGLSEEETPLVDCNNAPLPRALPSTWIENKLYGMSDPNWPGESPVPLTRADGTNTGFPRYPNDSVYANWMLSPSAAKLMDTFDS
Chain of UniProt P42336 (whole entry, looked up): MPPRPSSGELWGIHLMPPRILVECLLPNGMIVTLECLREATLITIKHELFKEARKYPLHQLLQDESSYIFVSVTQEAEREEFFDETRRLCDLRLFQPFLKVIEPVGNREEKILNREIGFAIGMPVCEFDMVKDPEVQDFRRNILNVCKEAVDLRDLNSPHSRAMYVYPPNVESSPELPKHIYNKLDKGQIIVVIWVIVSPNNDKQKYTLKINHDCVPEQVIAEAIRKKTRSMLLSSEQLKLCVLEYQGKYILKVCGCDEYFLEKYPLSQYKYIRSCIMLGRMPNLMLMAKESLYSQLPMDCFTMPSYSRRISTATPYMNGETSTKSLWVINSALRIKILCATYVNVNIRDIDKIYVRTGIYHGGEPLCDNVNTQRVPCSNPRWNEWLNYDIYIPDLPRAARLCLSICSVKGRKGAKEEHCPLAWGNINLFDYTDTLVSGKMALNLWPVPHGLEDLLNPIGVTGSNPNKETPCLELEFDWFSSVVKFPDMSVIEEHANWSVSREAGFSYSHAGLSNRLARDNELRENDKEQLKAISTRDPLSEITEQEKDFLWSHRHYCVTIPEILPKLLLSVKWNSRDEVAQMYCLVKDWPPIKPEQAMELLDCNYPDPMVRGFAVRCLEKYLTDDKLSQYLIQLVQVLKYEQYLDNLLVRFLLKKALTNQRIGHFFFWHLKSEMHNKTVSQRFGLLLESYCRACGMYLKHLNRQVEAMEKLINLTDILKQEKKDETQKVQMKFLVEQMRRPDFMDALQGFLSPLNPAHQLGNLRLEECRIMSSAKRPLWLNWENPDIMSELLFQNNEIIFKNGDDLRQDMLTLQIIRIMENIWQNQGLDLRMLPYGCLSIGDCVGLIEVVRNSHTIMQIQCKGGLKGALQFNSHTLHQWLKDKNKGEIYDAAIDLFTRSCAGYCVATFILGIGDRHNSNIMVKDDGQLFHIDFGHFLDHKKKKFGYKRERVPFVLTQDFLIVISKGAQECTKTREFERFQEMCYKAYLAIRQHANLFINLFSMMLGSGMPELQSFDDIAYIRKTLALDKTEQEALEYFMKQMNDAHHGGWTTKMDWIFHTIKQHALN
Chain of UniProt Q13470 (whole entry, looked up): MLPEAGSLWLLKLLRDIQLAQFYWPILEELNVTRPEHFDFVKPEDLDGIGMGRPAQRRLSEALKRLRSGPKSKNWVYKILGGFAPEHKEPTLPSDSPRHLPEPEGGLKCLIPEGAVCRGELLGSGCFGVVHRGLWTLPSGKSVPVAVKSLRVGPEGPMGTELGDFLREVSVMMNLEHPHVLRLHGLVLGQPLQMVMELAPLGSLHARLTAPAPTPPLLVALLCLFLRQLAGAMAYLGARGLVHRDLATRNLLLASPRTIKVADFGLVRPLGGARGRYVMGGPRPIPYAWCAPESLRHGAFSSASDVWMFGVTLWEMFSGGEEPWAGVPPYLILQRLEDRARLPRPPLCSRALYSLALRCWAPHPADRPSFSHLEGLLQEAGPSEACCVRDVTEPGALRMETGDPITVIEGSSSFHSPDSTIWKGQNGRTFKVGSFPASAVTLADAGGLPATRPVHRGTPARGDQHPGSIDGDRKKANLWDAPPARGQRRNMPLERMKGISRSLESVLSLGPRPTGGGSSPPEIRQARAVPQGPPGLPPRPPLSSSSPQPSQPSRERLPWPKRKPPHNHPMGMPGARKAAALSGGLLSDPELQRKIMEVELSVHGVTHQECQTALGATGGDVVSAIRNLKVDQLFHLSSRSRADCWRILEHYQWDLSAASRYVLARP
Chain of UniProt P07947 (whole entry, looked up): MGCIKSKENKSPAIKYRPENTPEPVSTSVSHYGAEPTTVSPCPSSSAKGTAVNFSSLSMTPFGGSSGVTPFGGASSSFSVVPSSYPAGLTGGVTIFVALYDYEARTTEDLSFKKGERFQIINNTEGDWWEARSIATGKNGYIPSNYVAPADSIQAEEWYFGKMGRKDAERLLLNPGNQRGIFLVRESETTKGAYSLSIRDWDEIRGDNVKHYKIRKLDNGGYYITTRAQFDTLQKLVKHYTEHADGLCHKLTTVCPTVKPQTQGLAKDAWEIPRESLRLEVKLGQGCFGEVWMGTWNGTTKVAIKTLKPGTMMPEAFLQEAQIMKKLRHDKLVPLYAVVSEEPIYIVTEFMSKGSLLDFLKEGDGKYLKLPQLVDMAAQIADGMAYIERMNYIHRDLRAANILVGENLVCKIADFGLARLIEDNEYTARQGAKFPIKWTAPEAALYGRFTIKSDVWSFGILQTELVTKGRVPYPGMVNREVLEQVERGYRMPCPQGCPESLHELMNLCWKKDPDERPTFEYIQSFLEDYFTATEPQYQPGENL

Series 1 — observed: cell-free assay; method: competition with immobilised ligand; concentration: 0.1 µM
SMILES: CS(=O)(=O)N1CCCC(NC(=O)[C@H](CCC2CCCCC2)NC(=O)c2ccc(CNc3ncnc4c3nnn4-c3ccccc3)cc2)C1 (some centres unmarked)
target	remaining binding [%]
PLK2 (Homo sapiens, UniProt Q9NYY3)	99
YES1 (Homo sapiens, UniProt P07947)	98
Tyrosine-protein kinase ABL1, phosphorylated (ABL1, Homo sapiens, UniProt P00519, F317L)	91
PAK1 (Homo sapiens, UniProt Q13153)	100
PI4KB (Homo sapiens, UniProt Q9UBF8)	100
PIK3CA (Homo sapiens, UniProt P42336)	98
EGFR (Homo sapiens, UniProt P00533, del746-750)	100
Tyrosine-protein kinase ABL1, phosphorylated (ABL1, Homo sapiens, UniProt P00519, Q252H)	95
NEK3 (Homo sapiens, UniProt P51956)	100
LYN (Homo sapiens, UniProt P07948)	96
RET (Homo sapiens, UniProt P07949)	87
TNK1 (Homo sapiens, UniProt Q13470)	96

Series 2 — method: DNA-protein interaction ELISA; molecule type: double-stranded DNA, one strand shown; matrix: in vitro, bacterial lysate; concentration: not given; setting: whole dsDNA probe, crude lysate protein; relative to: highest signal in screen; direction: higher = stronger binding
Target: Probable WRKY transcription factor 11, DNA-binding domain (WRKY11, Arabidopsis thaliana, UniProt Q9SV15, residues 228-325)
Construct (chain): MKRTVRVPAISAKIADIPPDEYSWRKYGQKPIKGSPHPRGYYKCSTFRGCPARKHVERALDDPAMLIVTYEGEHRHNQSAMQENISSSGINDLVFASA
Strand	relative absorbance
AAAAAATCTTCTTGTTTCTTATTTCTAAAA	15.6 % of maximum
AAAAAATCGGTACGCACCCCGGACTCAAAA	17.3 % of maximum
AAAAAAGATCTAGGCCTTGGGACTCAAAAA	10.7 % of maximum
AAAAAATTTTGTTTTTGCTTTTCCTTAAAA	9.8 % of maximum
AAAAAATATGTAGCTGCCGTTACGCTAAAA	11.2 % of maximum
AAAAAATGCCGAGACCCCATGCCGGCAAAA	12.7 % of maximum
AAAAAAGTTCGGGGCTTGGTTTGGAAAAAA	17.9 % of maximum
AAAAAATCATCTCTATGTTATTGTTGAAAA	14.4 % of maximum

Series 3 — method: EMSA with sequencing; molecule type: double-stranded DNA, one strand shown; matrix: in vitro; concentration: 10 and 20 nM; relative to: negative control set to 0; direction: higher = stronger binding
Target: Hepatocyte nuclear factor 3-alpha (Foxa1, Mus musculus, UniProt P35582, residues 1-468, full length assumed)
Setting: whole designed probe, mean of two concentrations, ends assumed
Constant ends, left off below: GTGAGCGGTGCCCATTGATGGGGAAC … TTTCACTGGGATCGTGGGGAC
Construct (chain): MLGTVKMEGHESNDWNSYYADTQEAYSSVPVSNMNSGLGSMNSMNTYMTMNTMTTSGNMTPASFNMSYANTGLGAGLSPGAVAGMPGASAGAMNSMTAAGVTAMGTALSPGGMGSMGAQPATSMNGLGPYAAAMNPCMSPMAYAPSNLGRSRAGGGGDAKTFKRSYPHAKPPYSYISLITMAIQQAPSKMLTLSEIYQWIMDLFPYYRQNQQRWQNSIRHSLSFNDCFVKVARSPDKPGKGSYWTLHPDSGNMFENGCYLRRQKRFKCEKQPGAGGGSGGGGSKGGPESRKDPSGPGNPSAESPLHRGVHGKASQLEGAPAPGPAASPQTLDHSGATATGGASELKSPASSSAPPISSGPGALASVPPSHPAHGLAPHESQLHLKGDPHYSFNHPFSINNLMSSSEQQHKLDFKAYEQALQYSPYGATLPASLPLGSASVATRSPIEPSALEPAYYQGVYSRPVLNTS
Strand	normalised bound fraction [ratio]
ATTTGATACACGAAGAAAATCCTGGATTTGCCTCTAAGAGTCTCCCACATTATAACAATAATATCAACAATGATACCAGTCTTGCCTTTCCAGTGTAATCTTGAACAGACTCTTAAATATTAACTAAGTAGAACACAAGCTAGCTTTTTAATATTTTTATTTATTTAAAAAATGAAAAAGGAAATTATATAGA	0.362
TATTCTGCAGGATAAAATTGGAAAGAACTCAGTACATTCATTGTTCAAAGCAATTGATTCACCCTTGAGAAAGCAGGCCGGTAGTTGAAGTGTGTTTACACAGTGACTCAGCTTCTGCTCAGAATTGGGTAACAGGTCTTTATTATCTTTACTTTCTTTCTTAGAAAAAAAAATTGACTAAGTTTTTACAGTG	0.454
TCTGGGTCATTTCCTTTTCTGGATTTAACTATTCAAAAGTCGGGGCCAGAGATACAGGAAAGTAGAGGCAGAGATCTTATTTATCGAAGTGTATGTTGGCATAGAAATTATCCTTAATCACTACTCCAGTTAGACCTTGTTCAGTCTGATGTTAGTGGTCTTTGCAGAGGATACTATATACAGTTTCCTCAAA	0.0194
ATCTTCCCCCTCTTCCTTGCCCCACCAGCTCACCTTCCCGGGTATATTGGAGATAGGAAATTAATATAAGCCGGCATTCGTTAACCCTCTTCTGGCGCAAACTGCTGTTTGCTCTGGATGAATCATGGTCCTTTGGCGACGCCAGGCTCCGGGAGAGCAAAGCACCGTGTCAGGGCCATGATCCGGGGTGGCC	0.109
TGTATCCATCTGGGCAGTATCTTCTCTGGGCCTGGCCTGTCATAGGTGCTTCAGGTTTCCCCATTTGAACCAGATACCAGTCGGGTTACCGGATGTTTGCTTAAAATGAGTCATAATTCCGGCTTCCTGCTTGTGCTGCTTCCAGCTAGGACTGATCGAATCAGTCTGGATTTTCCTTGGGGTGATCCGCAGG	0.121
CGCGCCCGGACAGGACATGGGGGTTTCTAAACAAGGCTCTTCAGTATCAGCTCATTGTGAGTCACAGATCAGATCTGCCCAGTTCTCTTTTGCAGATGACATTGTTGTTTCCTCTGCAGGATTCAGCAGTACTGAAAGGGTTATTCAGTCCCAACATGGGATCTTTACACAAGAAGGGGAGCTTGTGAAATGC	-0.0115
CACTAGCCAAGCAAATGCTACCTTTCCTAAATTACGCCGTGGTATTGTGTACGACAGCAGCAGGGTTGCTATTTTAAAATGGGATTGCGTAAAATAAACATGTGCCCAGATGACAGGAAGTACTAAGTTGATGATTAATTGATGCTCTGGTACGGCCTCGTGCTTTCCAGTGCTTCCATTTGTGTGACGATCC	0.244
TTTGCTCCCCACACCCATTGCCTGCCACAAAAGGGTATTTTGCCAACTTCAGTATGTAATCTTTTAGGGATATAGATGACGTGATCACATGTCAGATTACATAGTTAATAATTTACGCATACACATTTAAACTTACTCATATAAAGTCATACACAATTTAGAATCATTACTTTTTGCTATTCTTACATTTCAG	-0.0171

Single results of other studies
SMILES	cell line	assay	setting	scale	endpoint	result
CCN(CC)CCOc1ccc(Nc2ncc3cc(-c4c(Cl)cccc4Cl)c(=O)n(C)c3n2)cc1	mouse MPNST tumor cells	high-content nuclear imaging, refers to: cell number	10 µM, 12 h, mean of 2 replicates	relative to: plate mean, higher = more cells	nuclei count	-6.53 z-score

For quick reference, copied from above (series 1):
target	remaining binding [%]
Tyrosine-protein kinase ABL1, phosphorylated (ABL1, Homo sapiens, UniProt P00519, Q252H)	95
PI4KB (Homo sapiens, UniProt Q9UBF8)	100
YES1 (Homo sapiens, UniProt P07947)	98
PAK1 (Homo sapiens, UniProt Q13153)	100
